Assay results from different studies.
Each numbered part is a random draw from the data of one study; scales do not carry over between parts. Substitutions count along the parent as printed.

Sample 1
Target: Centromere-binding protein 1, full length, His-tagged (CBF1, Saccharomyces cerevisiae, UniProt P17106, residues 1-351)
Chain of UniProt P17106 (whole entry, looked up): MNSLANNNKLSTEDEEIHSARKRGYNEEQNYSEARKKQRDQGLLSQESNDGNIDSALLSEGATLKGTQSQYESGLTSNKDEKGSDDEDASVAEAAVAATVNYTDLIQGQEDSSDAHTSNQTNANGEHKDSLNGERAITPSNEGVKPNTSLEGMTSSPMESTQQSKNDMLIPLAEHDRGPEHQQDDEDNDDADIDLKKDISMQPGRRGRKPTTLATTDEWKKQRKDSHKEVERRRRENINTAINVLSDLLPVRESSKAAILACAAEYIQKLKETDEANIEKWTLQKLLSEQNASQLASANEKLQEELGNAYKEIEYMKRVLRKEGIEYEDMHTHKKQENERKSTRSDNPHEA
Technique: competition protein-binding microarray
Form: double-stranded DNA, one strand shown
Matrix: in vitro
Tested at: 2 µM
Notes: whole 60-bp probe, lowest competitor level
Added: Pho4 competitor, 0.05 µM
Direction: higher = stronger binding
Constant ends, left off below: … GTCTTGATTCGCTTGACGCTGCTG
| Strand | fluorescence intensity |
| --- | --- |
| TCGTACCGAGTGATGAACGTGGTGATGAACACCTTG | 76.9 a.u. |
| GGCAATATCAGTACCCACGTAACCGTGTGTTTCAGC | 69.1 a.u. |
| TGAACACCCATCCATCACGTGTAATTGGACATCCGG | 2090 a.u. |
| GCTCAGGAGCCCTGACTCGTGTTGGCTCGAGTAAAC | 68.5 a.u. |
| TATGGCATGAAAAATCATATGACTTCAAAAATGAAC | 497 a.u. |
| CATACCCAACCTTGTGACGTGGGTGAAGATATTTGT | 103 a.u. |
| TGCGCAACAACTTGTTTTGTGGGTGTATGTCTAGAA | 71.9 a.u. |
| CGTCCTAGTGATTGCCACGTGGGTGCCATGAGGAAG | 1040 a.u. |
| CGACGTTATCGTTACCACCTGAGGCAAGTTTGTTGT | 87.8 a.u. |
| AAATTACTAAGTTGAATCGTGGGTGACGCCGTATGA | 58.2 a.u. |
| GTCTTAACTTCCTGGCACGATTCTGCTTATATTTAT | 79.9 a.u. |
| CATACCCAACCTTGGTGGGTGGGTGAAGATATTTGT | 52.8 a.u. |
| ACAATGGTGGGATGGCCCGTGGGTAAGTCGTGTAGT | 69.1 a.u. |
| ATTGGGCGGCTAATCGGCGTGCTGTATAAATCGAGT | 102 a.u. |
| GACATGAAGTAGAGCAGCATGCAGACAGAATACATT | 86.9 a.u. |
| CCGGCCCGTCCCGTCCGCGTGGTGAGTAATTCTGGC | 93.2 a.u. |
| GAAGAAAAACCGATGCACGTGACTCGTTAGTCAAAA | 9360 a.u. |
| GAGCAGTTACGCAACTCCGTGATGGCGCGCCAAGGG | 62.7 a.u. |
| ATATAAATGGAAAAGCTGCATAACCACTTTAACTAA | 89.7 a.u. |
| GGCCTGGGTATTATCCTCATGACGCTCGTCAACAAC | 72.1 a.u. |
| CCATTCATGTCGAGTCACGTGGTGAATACAGATAAT | 10400 a.u. |
| AAATTACTAAGTTTTCACGTGGCCTACCCCGTATGA | 1070 a.u. |
| CGGGGTTAAGTTTTTCACGTGACGTGCGATCAGCAG | 5570 a.u. |
| GCCAGTAATTTACTACACGTGTATATATCAGAAAAA | 1550 a.u. |
| CGTCCTAGTGATTGTCACCGCACTTCCATGAGGAAG | 75.2 a.u. |

Sample 2
Target: ATF1, bZIP domain (human)
Technique: DHFR protein complementation
Matrix: yeast
Notes: single substitutions, most at no-binding floor
Baseline: wild-type JUN-FOS pair
Direction: higher = stronger binding
Parent: JUN, bZIP domain (human); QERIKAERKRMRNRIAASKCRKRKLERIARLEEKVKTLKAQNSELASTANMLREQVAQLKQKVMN; partner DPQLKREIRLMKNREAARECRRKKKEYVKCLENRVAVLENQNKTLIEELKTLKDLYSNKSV
| Substitution | binding fitness |
| --- | --- |
| A57S | -1.37 natural log |
| E44L | -1.51 natural log |
| L38A | -1.49 natural log |
| M51N | -1.46 natural log |
| Q41H | -1.47 natural log |
| Q55L | -1.6 natural log |
| K39G | -1.51 natural log |
| K39A | -1.47 natural log |
| V35E | -1.47 natural log |
| K39F | -1.55 natural log |
| S43K | -1.47 natural log |
| A57M | -1.58 natural log |
| M51E | -1.51 natural log |
| Q41L | -1.58 natural log |
| L31C | -1.59 natural log |
| T37A | -1.51 natural log |
| A46Y | -1.56 natural log |
| A49I | -1.32 natural log |
| L45K | -1.69 natural log |

Sample 3
Target: CCNB3, cyclin fold, Cln2 fusion (human)
Technique: yeast growth competition, sequencing
Matrix: yeast
Notes: weak parent motif
Baseline: not given
Direction: higher = stronger binding
Parent: RRM2 docking peptide (human); SKTARRIFQEPTE
| Substitution | normalised enrichment score |
| --- | --- |
| SKTARAIFQEPTE [R6A] | 0.0997 |
| SKTARRIFAEPTE [Q9A] | 0.218 |
| SKTAARIFQEPTE [R5A] | 0.0313 |
| SKTARRAFQEPTE [I7A] | 0.186 |
| SKAARRIFQEPTE [T3A] | -0.299 |
| SKTARRIFQEPAE [T12A] | 0.0125 |

Sample 4
Target: Histone acetyltransferase KAT6A, winged helix 1, GST fusion (KAT6A, Homo sapiens, UniProt Q92794, residues 1-85)
Technique: protein binding microarray
Form: double-stranded DNA, one strand shown
Matrix: in vitro
Tested at: not given
Notes: 8-mer, flanks averaged, mean of 2 arrays, mostly near background
Baseline: not given
Direction: higher = stronger binding
Construct (chain): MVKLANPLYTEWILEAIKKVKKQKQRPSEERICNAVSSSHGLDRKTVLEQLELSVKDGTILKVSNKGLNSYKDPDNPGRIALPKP
| Strand | E-score |
| --- | --- |
| GAGTTGAA | -0.161 |
| GAGCGTCA | 0.119 |
| CCGATTTA | 0.0305 |
| ACTAGGCC | -0.0645 |
| CCACGTGA | -0.116 |
| AGGTTCTC | -0.0109 |
| ATGTATCA | -0.143 |
| TCGAGGAA | -0.194 |
| CGTCTCCC | 0.0675 |
| ATTTAACA | -0.174 |
| CCGATACA | 0.121 |
| ACCGTGCA | -0.0408 |
| AGTATAAA | 0.0935 |
| GCGAGCTA | 0.00756 |
| CTTAAATA | -0.111 |
| AGTTAATG | -0.239 |

Sample 5
Target: Interferon regulatory factor 5, full length, phosphomimetic (IRF5, Homo sapiens, UniProt Q13568-2, residues 1-514, K96S/S451D/S453D/S456D/S462D)
Technique: protein-binding microarray
Form: double-stranded DNA, one strand shown
Matrix: in vitro
Tested at: 250 nM
Notes: 60-bp whole probe
Added: salmon DNA 0.4 mg/ml
Baseline: random background probes
Direction: higher = stronger binding
Constant ends, left off below: GCCTAGCAC … GTCTTGATTCGCTTGACGCTGCTG
| Strand | log fluorescence |
| --- | --- |
| TTAGATCTCAGTATCTATTAGTGCTAG | 0.973 z-score |
| GACGATATCAGTCACGAGACGTGCTAG | 1.22 z-score |
| TTAGGTTTCCTTCTCTTTTAGTGCTAG | 1.25 z-score |
| TTAGGACTGCTACTGCGTTAGTGCTAG | -0.517 z-score |
| TTAGATTCCCGTTTCGATTAGTGCTAG | 7.33 z-score |
| GGCGGTATCCTTATCCTGACGTGCTAG | -0.108 z-score |
| TCACATACTGATTTCCAACTGTGCTAG | 0.393 z-score |
| TGTTTTAATTTTCTCTTTGGGTGCTAG | 1.87 z-score |
| TTAGGTTTCGACTTTCGTTTAGTGCTA | 9.13 z-score |
| TTAGGTATCGGTCTCAGTTAGTGCTAG | 6.7 z-score |
| TTAGGTATCCTACTGCTTGAGTGCTAG | -0.0847 z-score |
| CACCCTTGGAAGTATGACTCTGTGCTA | 0.141 z-score |
| TTAGGTATCCTTCTCCTATAGTGCTAG | 0.467 z-score |
| TTAGGTTCCAGTTTCGATTAGTGCTAG | 9.25 z-score |
| TTAGGATTCGGGTTTCGGTTAGTGCTA | 8.04 z-score |
| TTAGGACTGGGTCTCGGTTCGTGCTAG | -0.0841 z-score |
| GACGGTTTCGCCTTTCGGGACGTGCTA | 5.89 z-score |
| TTAGGTTTCCTATTGCTTTAGTGCTAG | 1.08 z-score |
| GACGATATCAGCCTCGAGACGTGCTAG | 0.269 z-score |
| AATGGAACAAATATGTTTATGTGCTAG | 0.365 z-score |
| TCTGTCCTGATAGCCCTGGCGTGCTAG | -0.331 z-score |
| TCATCTTTCACTACTCCACTGTGCTAG | 4.08 z-score |
| TTAGGTATCGGTATCGGTGAGTGCTAG | 8.52 z-score |
| TCATTTTTCTAATTTACACTGTGCTAG | 1.12 z-score |
| CTTGTTTTACAATTTGCTTTGTGCTAG | 0.606 z-score |

Sample 6
Target: ABI1, truncated, D143A, DHFR fusion (Arabidopsis thaliana, UniProt P49597)
Technique: DHFR PCA, dose-response
Matrix: yeast
Notes: Hill fit, mean, not affinity
Added: (+)-ABA, dose series
Direction: lower = more sensitive
Parent: PYL1, truncated, DHFR fusion (Arabidopsis thaliana, UniProt Q8VZS8); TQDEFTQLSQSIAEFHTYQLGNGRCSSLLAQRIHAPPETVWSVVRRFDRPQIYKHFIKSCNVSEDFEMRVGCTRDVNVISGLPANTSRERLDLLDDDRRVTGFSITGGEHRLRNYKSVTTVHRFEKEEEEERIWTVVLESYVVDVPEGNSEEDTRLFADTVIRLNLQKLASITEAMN
| Substitution | ABA EC50 [µM] |
| --- | --- |
| Q19C | 4.08 |
| L82T | 146 |
| R111I | 183 |
| Q31M | 15.7 |
| I33V | 5.6 |
| P83Q | 91.8 |
| P37A | 6.54 |
| I162V | 1.21 |
| V137A | 157 |
| N22I | 1.99 |
| P37C | 9.82 |
| I33A | 121 |
| A35E | 681 |
| L28K | 39.8 |
| D92F | 137 |
| E129R | 3.58 |
| R46C | 7.31 |
| D75S | 1.73 |
| V145R | 59.7 |
| W134C | 0.986 |
| I52V | 1.09 |
| D97I | 4.71 |
| E4N | 5.48 |
